# Assay results of several laboratories.
# A part holds a random share of what one study measured. Positions count from the first letter of the parent shown.

# Series 1
# Target: ABI1, truncated, D143A, DHFR fusion (Arabidopsis thaliana)
# Technique: DHFR PCA, deep sequencing
# Medium: yeast
# Notes: methotrexate growth selection, single substitutions
# Added: (+)-ABA 710 µM
# Reference: wild-type fitted maximum
# Reading: higher = stronger binding
# Parent: PYL1, truncated, DHFR fusion (Arabidopsis thaliana); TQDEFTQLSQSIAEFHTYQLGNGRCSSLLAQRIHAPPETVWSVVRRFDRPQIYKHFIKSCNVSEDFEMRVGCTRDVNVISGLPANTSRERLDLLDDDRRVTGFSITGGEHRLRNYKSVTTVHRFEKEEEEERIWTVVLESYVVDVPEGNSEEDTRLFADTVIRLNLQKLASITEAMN
Variant,relative binding score [%]
H110V,30
V145K,79.2
R132I,109
V143K,-5.62
N22Q,104
V118S,77
F5K,105
P50D,2.29
E125H,109
L94Y,105
R90M,90
E131S,110
G23T,97
R111A,73.9
N165D,58.4
R88L,103
I79M,99.6
M68P,97.1
V62T,111
T101V,107
F5G,102
N22G,101
I57S,40.4
W41C,-1.38
I12K,90.8

# Series 2
# Target: CREB3L1, bZIP domain (human)
# Technique: DHFR protein complementation
# Medium: yeast
# Notes: single substitutions, most at no-binding floor
# Reference: wild-type JUN-FOS pair
# Reading: higher = stronger binding
# Parent: JUN, bZIP domain (human); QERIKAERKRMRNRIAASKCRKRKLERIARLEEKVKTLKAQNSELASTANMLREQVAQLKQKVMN; partner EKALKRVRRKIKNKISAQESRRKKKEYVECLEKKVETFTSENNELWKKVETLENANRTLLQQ
Variant,binding fitness [natural log]
A49V,-1.27
L38S,-1.48
K39A,-1.36
E33W,-1.51
S43Q,-1.33
N42P,-1.51
K36P,-1.49
R30Q,-1.25
K36W,-1.32
Q41F,-1.46
T37S,-1.41
N42K,-1.37
Q55N,-1.54
S47L,-1.43
A40E,-1.22
V35S,-1.43
S43N,-1.25
Q58A,-1.43
Q41T,-1.54
I28W,-1.48
L59R,-1.57
A40H,-1.36
L38Q,-1.49
M51W,-1.3
R30S,-1.49

# Series 3
# Target: CDC34 UBC core domain (UniProt P49427)
# Technique: yeast two-hybrid
# Medium: yeast
# Notes: mostly zero background
# Reference: not given
# Reading: higher = stronger interaction
# B1: TRIM63 RING domain (UniProt Q969Q1); chain PMENLEKQLICPICLEMFTKPVVILPCQHNLCRKCANDIFQAANPYWTSRGSSVSMSGGRFRCPTCRHEVIMDRHGV
# B2: IRF2BPL RING domain (UniProt Q9H1B7); chain SPMANSGPLCCTICHERLEDTHFVQCPSVPSHKFCFPCSRESIKAQGATGEVYCPSGEKCPLVGSNVP
# B3: RNF170 RING domain (UniProt Q96K19); chain TRQQFYTDMYCPICLHQASFPVETNCGHLFCGACIIAYWRYGSWLGAISCPICRQTVTLLLTVF
# Residues (chain): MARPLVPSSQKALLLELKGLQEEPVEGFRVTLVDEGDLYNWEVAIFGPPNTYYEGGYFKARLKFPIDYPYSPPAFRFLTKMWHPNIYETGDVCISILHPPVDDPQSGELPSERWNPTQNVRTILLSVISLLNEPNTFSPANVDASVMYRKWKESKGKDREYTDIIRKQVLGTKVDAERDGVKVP
Sequence,lacZ reporter activity
RLTMMWEEVTCPICLDPFVEPVSIECGHSFCQECISQVGKGGGSVCPVCRQRFLLKNLRP (TRIM21 RING domain (UniProt P19474)),0
QLQDIKEQTMCPVCLDRLKNMIFLCGHGTCQLCGDRMSECPICRKAIERRILLY (MIB1 RING domain (UniProt Q86YT6)),0
B1 (TRIM63 RING domain),0
QHHELTSLFECPVCFDYVLPPILQCQAGHLVCNQCRQKLSCCPTCRGALTPSIRNL (SIAH2 RING domain (UniProt O43255)),0
B2 (IRF2BPL RING domain),0
DAIPSLSECQCGICMEILVEPVTLPCNHTLCKPCFQSTVEKASLCCPFCRRRVSSWTRYH (RNF168 RING domain (UniProt Q8IYW5)),0
B3 (RNF170 RING domain),0
FPEHFVKSISCQICEHILADPVETNCKHVFCRVCILRCLKVMGSYCPSCRYPCFPTDLES (RAG1 RING domain (UniProt P15918)),0
QLRRLQEERTCKVCMDKEVSIVFIPCGHLVVCKDCAPSLRKCPICRSTIKGTVRTF (BIRC3 RING domain (UniProt Q13489)),0
FASPPDSNFVCSVCHGVLKRPARLPCSHIFCKKCILRWLARQKTCPCCRKEVKRKKVVH (RNF151 RING domain (UniProt Q2KHN1)),0

# Series 4
# Target: CCNF, cyclin fold, Cln2 fusion (human)
# Technique: yeast growth competition, sequencing
# Medium: yeast
# Notes: strong parent motif
# Reference: not given
# Reading: higher = stronger binding
# Parent: PKMYT1 docking peptide (human); SFEPRNLLSLFED
Variant,normalised enrichment score
SFEPRNLLSLFEW [D13W],1.39
SFEPSNLLSLFED [R5S],-1.77
SFEPRNLLRLFED [S9R],0.917
SFEPRNLLSNFED [L10N],0.141
SFEPRNLRSLFED [L8R],0.345
SFEPRNPLSLFED [L7P],-0.809
SKEPRNLLSLFED [F2K],0.932
SFVPRNLLSLFED [E3V],2.76
SVEPRNLLSLFED [F2V],0.839
SFEPRNLKSLFED [L8K],-0.104
SFEPRYLLSLFED [N6Y],-0.917
SFEPRNLLSLIED [F11I],-0.108
SFEPRNLLSLFEM [D13M],2.1
FFEPRNLLSLFED [S1F],2.36
SFEPRNLLSLFLD [E12L],0.615
SFEPDNLLSLFED [R5D],-0.838
SFEPRHLLSLFED [N6H],0.174

# Some of these lines once more (series 1):
Variant,relative binding score [%]
G23T,97
E125H,109
E131S,110
I79M,99.6
R88L,103
L94Y,105
V145K,79.2
R90M,90
N22G,101
R111A,73.9
V118S,77
